Measurements gathered from unrelated publications.
Compare with care: the assays were run in different laboratories. ± marks the error that the study gave.
Sigmar1: Sigma non-opioid intracellular receptor 1 (Sigmar1, Rattus norvegicus, UniProt Q9R0C9)
UniProt Q9R0C9, sequence (whole entry, looked up): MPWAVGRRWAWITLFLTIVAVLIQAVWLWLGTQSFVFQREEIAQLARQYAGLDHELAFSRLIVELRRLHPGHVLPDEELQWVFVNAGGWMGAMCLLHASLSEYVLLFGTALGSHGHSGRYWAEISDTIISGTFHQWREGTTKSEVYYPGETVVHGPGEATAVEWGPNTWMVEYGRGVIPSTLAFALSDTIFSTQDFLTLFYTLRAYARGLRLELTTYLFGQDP
AKR1C2: Aldo-keto reductase family 1 member C2 (AKR1C2, Homo sapiens, UniProt P52895)
UniProt P52895, sequence (whole entry, looked up): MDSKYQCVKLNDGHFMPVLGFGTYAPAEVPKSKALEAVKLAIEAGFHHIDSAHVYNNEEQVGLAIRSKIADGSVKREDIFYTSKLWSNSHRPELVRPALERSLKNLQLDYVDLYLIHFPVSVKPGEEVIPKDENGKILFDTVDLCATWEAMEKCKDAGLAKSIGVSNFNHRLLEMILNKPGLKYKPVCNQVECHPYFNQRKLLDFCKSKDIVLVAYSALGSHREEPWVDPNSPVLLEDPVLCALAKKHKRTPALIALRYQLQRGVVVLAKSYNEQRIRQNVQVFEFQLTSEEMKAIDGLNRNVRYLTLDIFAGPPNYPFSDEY
PDK1: [Pyruvate dehydrogenase (acetyl-transferring)] kinase isozyme 1, mitochondrial (PDK1, Homo sapiens, UniProt Q15118)
UniProt Q15118, sequence (whole entry, looked up): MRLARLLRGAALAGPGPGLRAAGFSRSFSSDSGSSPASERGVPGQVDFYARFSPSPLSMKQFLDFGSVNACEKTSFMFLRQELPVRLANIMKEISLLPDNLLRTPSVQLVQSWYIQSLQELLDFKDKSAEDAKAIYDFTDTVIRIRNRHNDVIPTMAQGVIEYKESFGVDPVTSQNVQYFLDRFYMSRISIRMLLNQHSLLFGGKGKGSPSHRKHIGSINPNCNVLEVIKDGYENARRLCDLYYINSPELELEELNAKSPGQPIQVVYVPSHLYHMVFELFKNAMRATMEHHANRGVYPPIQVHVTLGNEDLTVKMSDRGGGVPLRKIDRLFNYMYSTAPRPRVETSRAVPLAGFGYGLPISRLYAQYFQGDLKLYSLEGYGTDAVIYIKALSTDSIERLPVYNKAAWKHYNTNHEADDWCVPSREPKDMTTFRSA
hdac10: Polyamine deacetylase HDAC10 (hdac10, Danio rerio, UniProt F1QCV2)
UniProt F1QCV2, sequence (whole entry, looked up): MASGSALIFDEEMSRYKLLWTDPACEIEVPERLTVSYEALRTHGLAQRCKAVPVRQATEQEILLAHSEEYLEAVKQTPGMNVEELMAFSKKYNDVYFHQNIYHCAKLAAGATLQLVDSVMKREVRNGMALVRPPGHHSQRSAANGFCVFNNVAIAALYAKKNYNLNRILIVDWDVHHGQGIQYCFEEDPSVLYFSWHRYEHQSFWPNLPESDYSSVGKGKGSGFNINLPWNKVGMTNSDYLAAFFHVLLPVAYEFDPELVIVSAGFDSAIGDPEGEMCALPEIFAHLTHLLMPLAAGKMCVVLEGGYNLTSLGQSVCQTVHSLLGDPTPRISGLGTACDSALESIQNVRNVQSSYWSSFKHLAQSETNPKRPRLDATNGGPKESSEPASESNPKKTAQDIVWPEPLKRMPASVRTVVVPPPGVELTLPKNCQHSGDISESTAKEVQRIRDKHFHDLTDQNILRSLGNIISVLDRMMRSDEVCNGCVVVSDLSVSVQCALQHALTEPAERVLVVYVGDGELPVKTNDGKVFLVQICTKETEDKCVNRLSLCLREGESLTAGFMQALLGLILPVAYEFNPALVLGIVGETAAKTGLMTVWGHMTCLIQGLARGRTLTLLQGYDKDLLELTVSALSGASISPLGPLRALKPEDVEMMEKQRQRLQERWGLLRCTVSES
ELANE: Neutrophil elastase (ELANE, Homo sapiens, UniProt P08246)
UniProt P08246, sequence (whole entry, looked up): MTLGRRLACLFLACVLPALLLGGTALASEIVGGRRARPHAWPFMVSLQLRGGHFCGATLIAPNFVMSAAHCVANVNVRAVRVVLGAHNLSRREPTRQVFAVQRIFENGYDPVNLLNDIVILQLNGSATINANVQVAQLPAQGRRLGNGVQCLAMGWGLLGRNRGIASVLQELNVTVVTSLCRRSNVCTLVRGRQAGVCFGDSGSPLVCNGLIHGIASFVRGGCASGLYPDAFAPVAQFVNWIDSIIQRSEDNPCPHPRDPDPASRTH
PNLIP: Pancreatic triacylglycerol lipase (PNLIP, Sus scrofa, UniProt P00591)
Ectonucleoside triphosphate diphosphohydrolase 8: Ectonucleoside triphosphate diphosphohydrolase 8 (Homo sapiens, UniProt Q5MY95)
UniProt Q5MY95, sequence (whole entry, looked up): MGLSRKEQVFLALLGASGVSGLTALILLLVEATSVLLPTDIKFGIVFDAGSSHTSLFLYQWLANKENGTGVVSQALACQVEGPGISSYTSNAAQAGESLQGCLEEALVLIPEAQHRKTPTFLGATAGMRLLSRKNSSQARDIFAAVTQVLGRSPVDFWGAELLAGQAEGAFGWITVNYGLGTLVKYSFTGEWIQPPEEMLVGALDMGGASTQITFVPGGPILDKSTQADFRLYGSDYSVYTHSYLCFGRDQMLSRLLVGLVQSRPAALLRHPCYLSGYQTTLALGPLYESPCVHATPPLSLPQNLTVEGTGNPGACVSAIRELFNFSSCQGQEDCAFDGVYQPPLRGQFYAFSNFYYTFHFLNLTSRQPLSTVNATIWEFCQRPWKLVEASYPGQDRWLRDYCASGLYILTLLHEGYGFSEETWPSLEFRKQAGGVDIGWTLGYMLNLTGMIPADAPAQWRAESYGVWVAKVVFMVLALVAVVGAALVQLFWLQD
PTK6: Protein-tyrosine kinase 6 (PTK6, Homo sapiens, UniProt Q13882)
UniProt Q13882, sequence (whole entry, looked up): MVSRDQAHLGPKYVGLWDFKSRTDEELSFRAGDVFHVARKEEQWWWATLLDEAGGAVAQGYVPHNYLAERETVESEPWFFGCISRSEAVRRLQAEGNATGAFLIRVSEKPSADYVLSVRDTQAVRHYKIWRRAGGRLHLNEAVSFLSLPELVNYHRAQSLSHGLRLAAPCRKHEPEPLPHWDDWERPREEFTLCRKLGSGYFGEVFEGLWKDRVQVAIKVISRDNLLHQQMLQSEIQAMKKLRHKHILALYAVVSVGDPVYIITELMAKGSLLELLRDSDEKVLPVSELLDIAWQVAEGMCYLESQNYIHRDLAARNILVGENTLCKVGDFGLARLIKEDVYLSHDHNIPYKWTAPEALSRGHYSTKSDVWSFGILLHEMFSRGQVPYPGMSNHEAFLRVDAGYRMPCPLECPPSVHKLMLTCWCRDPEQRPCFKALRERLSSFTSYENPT
CDK4 with cyclin D3: Cyclin-dependent kinase 4, with cyclin D3 (CDK4, Homo sapiens, UniProt P11802)
UniProt Q15858, sequence (whole entry, unmodified, looked up): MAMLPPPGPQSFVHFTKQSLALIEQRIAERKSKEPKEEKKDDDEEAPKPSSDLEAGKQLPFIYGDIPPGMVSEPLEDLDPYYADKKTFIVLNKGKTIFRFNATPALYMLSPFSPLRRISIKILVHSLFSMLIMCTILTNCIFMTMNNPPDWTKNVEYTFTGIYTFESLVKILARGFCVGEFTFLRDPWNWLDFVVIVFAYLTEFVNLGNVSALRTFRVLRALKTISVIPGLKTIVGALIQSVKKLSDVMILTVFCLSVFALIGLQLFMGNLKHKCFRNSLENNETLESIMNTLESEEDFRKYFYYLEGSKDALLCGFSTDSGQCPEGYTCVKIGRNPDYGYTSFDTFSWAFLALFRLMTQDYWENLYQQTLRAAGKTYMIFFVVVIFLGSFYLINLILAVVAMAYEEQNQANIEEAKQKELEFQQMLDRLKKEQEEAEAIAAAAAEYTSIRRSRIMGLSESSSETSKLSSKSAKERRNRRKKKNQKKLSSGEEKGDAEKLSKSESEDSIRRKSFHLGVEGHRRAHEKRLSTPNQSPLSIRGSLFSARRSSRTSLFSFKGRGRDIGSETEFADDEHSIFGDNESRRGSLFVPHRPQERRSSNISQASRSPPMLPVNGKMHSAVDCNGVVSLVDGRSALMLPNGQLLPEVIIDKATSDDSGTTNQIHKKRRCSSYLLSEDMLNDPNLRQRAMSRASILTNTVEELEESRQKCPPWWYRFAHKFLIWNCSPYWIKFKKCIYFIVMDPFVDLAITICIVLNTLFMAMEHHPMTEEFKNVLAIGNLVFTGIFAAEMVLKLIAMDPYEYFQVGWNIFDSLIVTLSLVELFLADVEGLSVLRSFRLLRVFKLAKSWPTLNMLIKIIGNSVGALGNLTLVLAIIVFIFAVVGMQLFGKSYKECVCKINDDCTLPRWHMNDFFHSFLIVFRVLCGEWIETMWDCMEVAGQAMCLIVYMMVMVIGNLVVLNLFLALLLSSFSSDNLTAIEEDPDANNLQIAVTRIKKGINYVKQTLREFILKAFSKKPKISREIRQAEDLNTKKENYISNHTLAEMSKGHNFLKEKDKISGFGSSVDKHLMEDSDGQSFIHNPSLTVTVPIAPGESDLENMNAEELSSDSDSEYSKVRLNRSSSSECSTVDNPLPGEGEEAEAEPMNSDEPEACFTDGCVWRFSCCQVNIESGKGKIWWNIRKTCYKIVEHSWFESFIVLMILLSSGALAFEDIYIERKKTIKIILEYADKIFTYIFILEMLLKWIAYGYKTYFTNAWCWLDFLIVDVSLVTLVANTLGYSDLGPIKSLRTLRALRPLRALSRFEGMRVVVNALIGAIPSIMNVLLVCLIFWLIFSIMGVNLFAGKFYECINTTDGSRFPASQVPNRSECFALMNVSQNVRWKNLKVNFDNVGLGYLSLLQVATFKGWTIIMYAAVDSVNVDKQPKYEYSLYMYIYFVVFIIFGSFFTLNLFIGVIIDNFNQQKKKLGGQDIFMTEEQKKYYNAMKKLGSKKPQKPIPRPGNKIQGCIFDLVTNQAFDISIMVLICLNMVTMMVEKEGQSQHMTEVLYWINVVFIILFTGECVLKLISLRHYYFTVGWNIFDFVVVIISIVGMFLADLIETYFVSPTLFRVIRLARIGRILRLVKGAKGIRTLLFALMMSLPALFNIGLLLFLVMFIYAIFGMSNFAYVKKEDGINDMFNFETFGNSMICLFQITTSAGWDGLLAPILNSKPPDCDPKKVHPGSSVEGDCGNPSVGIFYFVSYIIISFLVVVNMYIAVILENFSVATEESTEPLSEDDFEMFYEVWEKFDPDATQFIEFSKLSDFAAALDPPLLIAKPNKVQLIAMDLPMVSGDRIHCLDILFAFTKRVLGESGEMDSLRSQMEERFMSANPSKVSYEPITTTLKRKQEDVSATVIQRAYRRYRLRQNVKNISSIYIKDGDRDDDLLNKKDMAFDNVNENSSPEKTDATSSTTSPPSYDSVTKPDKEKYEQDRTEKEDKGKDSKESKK

Compound	target	test	test system	conditions	inhibition
O=P(O)(O)C(NCc1cccc(O)c1O)c1ccccc1 (centres unmarked)	1-deoxy-D-xylulose 5-phosphate reductoisomerase (Escherichia coli K-12, UniProt P45568)	enzyme activity, inhibitor, absorbance		50 µM	96.8%
C/C(=N\OCCCN1CCOCC1)c1ccc(C(F)(F)F)cc1	Sigmar1	radioligand binding		10 µM	99.2%
O=c1[nH]c2ccccc2n1CCCCCN1CCN(c2ccc(F)cc2)CC1	5-hydroxytryptamine receptor 7 (HTR7, Homo sapiens, UniProt P34969)	cAMP production	HEK293 expressing h5-HT7R	concentration not given	~75%
CCCCc1nc(Cl)c(C(=O)O)n1Cc1ccc(-c2ccccc2-c2nnn[nH]2)cc1	3-hydroxy-3-methylglutaryl-coenzyme A reductase (HMGCR, Homo sapiens, UniProt P04035)	enzyme activity, inhibitor, spectrophotometric counter-screen		up to 100 µM	no inhibition
CC(C)(O)C1=CCC(C2CC[C@]3(C)C2CCC2[C@@]4(C)CCC(O)C(C)(C)C4CC[C@]23C)C1=O (some centres unmarked)	Tyrosine-protein phosphatase non-receptor type 1 (PTPN1, Homo sapiens, UniProt P18031)	enzyme activity, inhibitor, absorbance		50 µM	74.8%
OCc1c(Cl)ccc(Oc2ccc(Cl)cc2Cl)c1O	Enoyl-acyl carrier reductase (ENR, Toxoplasma gondii, UniProt Q6UCJ9)	enzyme activity, inhibitor		1 µM	92%
O=C(Nc1cnc2c(c1)CCCC2)c1cn2c(n1)CN(C(=O)c1cc3cc(-c4ccccc4)ccn3n1)CC2	Programmed cell death 1 ligand 1, with PD-1 (CD274, Homo sapiens, UniProt Q9NZQ7)	PD-1/PD-L1 binding, TR-FRET		5 and 25 µM	no inhibition
COc1ccc2c(c1)CC[C@@H]1[C@@H]2CC[C@]2(C)C(=O)CC[C@@H]12	AKR1C2	enzyme activity, inhibitor, absorbance		100 µM, pH 9	70%
N#Cc1c(NC(=O)c2ccc(Cl)cc2)sc2c1CCC(c1ccccc1)C2 (centres unmarked)	PDK1	enzyme activity, inhibitor, ATP luminescence		100 µg/mL	29%
C/C(=N\OCCN1CCCC1)c1cccc(C(F)(F)F)c1	Sigmar1	radioligand binding		10 µM	56.4%
CC[C@H](C)[C@H](NC(=O)[C@H](CCCNC(=N)N)NC(=O)[C@H](CCCCN)NC(=O)[C@@H]1CCCN1C(=O)[C@H](CO)n1cc(CN(CC[C@H](N)C(=O)O)C[C@H]2O[C@@H](n3cnc4c(N)ncnc43)[C@H](O)[C@@H]2O)nn1)C(=O)N[C@@H](C)C(N)=O	Histone-lysine N-methyltransferase EHMT2 (EHMT2, Homo sapiens, UniProt Q96KQ7)	enzyme activity, inhibitor, fluorescence		50 µM	< 50%
COc1ccc(-c2nc(CN3CCN(C(=O)c4ccc(C(C)(C)C)cc4)CC3)no2)cc1	Sodium channel protein type 9 subunit alpha (SCN9A, Homo sapiens, UniProt Q15858)	sodium current, whole-cell patch clamp	HEK293, stable	20 µM	3 ± 1%
COc1ccc(C(=O)NO)cc1NC(=O)c1ccc(-c2ccccc2)cc1	hdac10			0.1 µM	< 10%
C[C@@]12CC[C@@H]3c4cc(I)c(O)cc4CC[C@H]3[C@@H]1CCC2=O	AKR1C2	enzyme activity, inhibitor, absorbance		10 µM, pH 9	22.4%
O=C(NO)c1coc(-c2cccs2)n1	hdac10			0.1 µM	< 10%
CCCC1CCC(c2ccc(C(=O)NC(C(=O)O)C(C)C)cc2)CC1 (centres unmarked)	Sodium channel protein type 9 subunit alpha (SCN9A, Homo sapiens, UniProt Q15858, R1619A)	inhibitor		66 µM, R1608A mutant	41 ± 12.8%
COc1cc(/C=N\C(=S)NNC(=O)CC2C(=O)c3ccccc3C2=O)cc(OC)c1OC	ELANE	enzyme activity, inhibitor, fluorescence		50 µM	28.1%
C[C@]12CC[C@@H]3c4ccc(O)c(Br)c4CC[C@H]3[C@@H]1CCC2=O	AKR1C2	enzyme activity, inhibitor, absorbance		100 µM, pH 9	62.5%
COc1cccc(COc2ccccc2/C=C/C(=O)NO)c1	hdac10			1 µM	24%
O=C(/C=C/c1ccc2c(c1)OCCO2)c1cccs1	Amine oxidase [flavin-containing] B (MAOB, Homo sapiens, UniProt P27338)	enzyme activity, inhibitor, fluorescence		1 µM	72.8%
COc1ccc(C(=O)NO)cc1OCc1ccccc1	hdac10			0.1 µM	< 10%
O=C1c2c(O)cc(O)cc2OC2(c3ccc(O)cc3)Oc3cc(O)c4c(c3C12O)OC(c1ccc(O)cc1)C(O)C4 (centres unmarked)	PNLIP	enzyme activity, inhibitor, absorbance		250 µM	69.5%
Cc1cccc(/C=C/C(=O)c2cnn(-c3ccccc3)c2C)c1	Pancreatic alpha-amylase (AMY2, Sus scrofa, UniProt P00690)	enzyme activity, inhibitor, absorbance		400 µM	42.4%
CN(C)C(=O)c1ccc(S(=O)(=O)c2ccc(NC(=O)[C@@](C)(O)C(F)(F)F)c(Cl)c2)cc1	PDK1	enzyme activity, inhibitor, ATP luminescence		10 µM	4.77%
N=C(N)NC(=O)c1ccc(C(=O)NCCCC[C@H](NC(=O)CNC(=O)CCC(=O)NN=Cc2cc(C=NNC(=O)CCC(=O)NCC(=O)N[C@@H](CCCCNC(=O)c3ccc(C(=O)NC(=N)N)[nH]3)C(=O)N[C@@H](Cc3c[nH]c4ccccc34)C(=O)N[C@@H](CCCCN)C(N)=O)cc(C=NNC(=O)CCC(=O)NCC(=O)N[C@@H](CCCCNC(=O)c3ccc(C(=O)NC(=N)N)[nH]3)C(=O)N[C@@H](Cc3c[nH]c4ccccc34)C(=O)N[C@@H](CCCCN)C(N)=O)c2)C(=O)N[C@@H](Cc2c[nH]c3ccccc23)C(=O)N[C@@H](CCCCN)C(N)=O)[nH]1	Tryptase beta-2 (TPSB2, Homo sapiens, UniProt P20231)	share from high-affinity mode, inhibitor		concentration not given	25 to 30%
O=C(c1ccc(Oc2ccc(Cl)cc2)c([N+](=O)[O-])c1)C(Cl)Cl	PDK1	enzyme activity, inhibitor, ATP luminescence		10 µM	50.1%
C[C@]12CCC[C@H]1[C@@H]1CCc3c(cc(I)c(O)c3I)[C@H]1CC2	AKR1C2	enzyme activity, inhibitor, absorbance		10 µM, pH 9	22.9%

Compound	target	test	test system	conditions	inhibition
O=C(c1cccc(S(=O)(=O)NC2CC2)c1)N1CCOCC1	Ectonucleoside triphosphate diphosphohydrolase 8	enzyme activity, inhibitor, absorbance		100 µM	35%
O=[N+]([O-])c1ccc(-c2cs/c(=N/N=C/c3ccc(N4CCOCC4)cc3)n2-c2ccccc2)cc1	Carbonic anhydrase 2 (CA2, Bos taurus, UniProt P00921)	enzyme activity, inhibitor, absorbance		500 µM	89.8%
Brc1ccc2c(c1)[nH]c1ncnc(Nc3ccccc3)c12	PTK6	enzyme activity, inhibitor, ADP detection		2 µM	17.1%
C/C(=N\OCCCCN1CCCCC1)c1ccc(C(F)(F)F)cc1	Sigmar1	radioligand binding		1 µM	72.9%
COc1cc(/C=C/C(=O)NO)ccc1OCc1ccccc1	hdac10			0.1 µM	17%
C[C@]12CC[C@@H]3c4cc(I)c(O)c(I)c4CC[C@H]3[C@@H]1CCC2=O	AKR1C2	enzyme activity, inhibitor, absorbance		10 µM, pH 9	21.3%
FC(F)(F)C(=NOCCN1CCCC1)c1ccc(C(F)(F)F)cc1 (mixture of isomers)	Sigmar1	radioligand binding		10 µM	67.4%
Nc1ccccc1NC(=O)c1ccc(Nc2nccc(-c3cn(C4CCCC4)nn3)n2)cc1	CDK4 with cyclin D3	enzyme activity, inhibitor, TR-FRET		50 nM	-0.72%
O=C1C[C@H](c2ccc(O)c(O)c2)c2c(cc(O)c3c2O[C@H](c2ccc(O)c(O)c2)[C@H](O)C3)O1	α-glucosidase (Saccharomyces cerevisiae)	inhibitor		10 µg/mL, with: pNPG	45.2 ± 1.87%
COc1cc(C(=O)NC2CCC(N3CCN(CC4CCC5(CCCC5)C4)CC3)CC2)c(F)cc1Nc1ncc2c(n1)N(C1CCCC1(F)F)CC(F)(F)C(=O)N2C (centres unmarked)	Ephrin type-B receptor 3 (EPHB3, Homo sapiens, UniProt P54753)	cell-free assay, TR-FRET		10 µM	0.53%
C/C(=N\OCCN(C)Cc1ccccc1)c1ccccc1C(F)(F)F	Sigmar1	radioligand binding		10 µM	72.3%
FC(F)(F)Oc1cccc(Nc2ncnc3[nH]c4cc(Br)ccc4c23)c1	PTK6	enzyme activity, inhibitor, ADP detection		2 µM	22%
CCOC(=O)C1=C(C)NC2=C(C(=O)CC(C)(C)C2)C1c1ccc(OCC(=O)NN=Cc2cc(Br)c(O)c(Br)c2)cc1OCC(=O)NN=Cc1cc(Br)c(O)c(Br)c1 (centres unmarked)	Alpha-glucosidase MAL32 (MAL32, Saccharomyces cerevisiae, UniProt P38158)	inhibitor		0.5 mM, pH 6.8, 37 °C	92.7%
COc1ccc(Br)c(/C=C/C(=O)NO)c1	hdac10			0.1 µM	11%
O=C(CCCCCCN1CCN(c2ccc(Nc3ncc(F)c(-c4cn(C5CCCC5)nn4)n3)cc2)CC1)NO	CDK4 with cyclin D3	enzyme activity, inhibitor, TR-FRET		50 nM	73.5%
O=C(/C=C/c1ccc2ccccc2c1)NO	hdac10			0.1 µM	46%
O=C(NCc1ccc(F)cc1)c1nc(NCCO)c2cccnc2c1O	Tripartite terminase subunit 3, C-terminal nuclease domain (Human betaherpesvirus 5, UniProt P16732)	endonuclease activity, ELISA		10 µM	53 ± 6.5%
O=C(NCc1ccccc1)c1cc(S(=O)(=O)NCc2ccccc2)ccc1Cl	Ectonucleoside triphosphate diphosphohydrolase 3 (Homo sapiens, UniProt O75355)	enzyme activity, inhibitor, absorbance		100 µM	12%
O=C(Nc1nc2ccccc2s1)Nc1ccccc1C(F)(F)F	Beta-glucuronidase (uidA, Escherichia coli, UniProt P05804)	enzyme activity, inhibitor, absorbance		100 µM	52.9%
COCC12C(=O)NC3C4(C(OC)CC1O)C1CC5(O)C(OC)C(O)C(OC(C)=O)(C1C5OC(=O)c1ccccc1)C3(O)C(OC)C24 (centres unmarked)	Ribosomal protein S6 kinase beta-2 (RPS6KB2, Homo sapiens, UniProt Q9UBS0)	enzyme activity		25 µM	inhibited
C[C@@]12CC[C@@H]3c4ccc(O)cc4CC[C@H]3[C@@H]1CCC2=O	AKR1C2	enzyme activity, inhibitor, absorbance		100 µM, pH 9	65%
O=C(NO)c1coc(-c2ccc(Br)cc2)n1	hdac10			1 µM	> 95%
CCc1nc2ccccc2n1S(=O)(=O)c1ccc2c(c1)C(=O)CC2=O	ELANE	enzyme activity, inhibitor, fluorescence		10 µM	64%
O=C(O[C@H]1Cc2c(O)cc(O)cc2O[C@@H]1c1ccc(O)cc1)c1cc(O)c(O)c(O)c1	PNLIP	enzyme activity, inhibitor		10 µM	95.9%
CCCCNC(=O)c1cccc(S(=O)(=O)NC2CC2)c1	Ectonucleoside triphosphate diphosphohydrolase 8	enzyme activity, inhibitor, absorbance		100 µM	46%
N[C@H]1CCCc2c1[nH]c1ccc(Cl)cc21	5-hydroxytryptamine receptor 3A (HTR3A, Homo sapiens, UniProt P46098)	ligand displacement, radioligand		10 µM	8.2%

Some of these lines once more:
Compound	target	test	test system	conditions	inhibition
COc1ccc(Br)c(/C=C/C(=O)NO)c1	hdac10			0.1 µM	11%
O=C(CCCCCCN1CCN(c2ccc(Nc3ncc(F)c(-c4cn(C5CCCC5)nn4)n3)cc2)CC1)NO	CDK4 with cyclin D3	enzyme activity, inhibitor, TR-FRET		50 nM	73.5%
O=C(/C=C/c1ccc2ccccc2c1)NO	hdac10			0.1 µM	46%
O=C(NCc1ccc(F)cc1)c1nc(NCCO)c2cccnc2c1O	Tripartite terminase subunit 3, C-terminal nuclease domain (Human betaherpesvirus 5, UniProt P16732)	endonuclease activity, ELISA		10 µM	53 ± 6.5%
O=C(NCc1ccccc1)c1cc(S(=O)(=O)NCc2ccccc2)ccc1Cl	Ectonucleoside triphosphate diphosphohydrolase 3 (Homo sapiens, UniProt O75355)	enzyme activity, inhibitor, absorbance		100 µM	12%
O=C(Nc1nc2ccccc2s1)Nc1ccccc1C(F)(F)F	Beta-glucuronidase (uidA, Escherichia coli, UniProt P05804)	enzyme activity, inhibitor, absorbance		100 µM	52.9%
COCC12C(=O)NC3C4(C(OC)CC1O)C1CC5(O)C(OC)C(O)C(OC(C)=O)(C1C5OC(=O)c1ccccc1)C3(O)C(OC)C24 (centres unmarked)	Ribosomal protein S6 kinase beta-2 (RPS6KB2, Homo sapiens, UniProt Q9UBS0)	enzyme activity		25 µM	inhibited
